Assay results of several laboratories.
Each line is one published result; not all experiments were run side by side. ± gives the spread as reported.

CCOc1c([C@H](C)n2nc(C)c3c(N)ncnc32)cc(Cl)c(F)c1[C@@H]1CNC(=O)C1 — AUC(0-last) geometric mean (patients, monotherapy; oral, 10 mg once daily, cycle 1 day 1): 2.99 µM·h
C[C@H]1O[C@@H](O[C@H]2[C@@H](O)C[C@H](O[C@H]3[C@@H](O)C[C@H](O[C@H]4CC[C@@]5(C)[C@H](CC[C@@H]6[C@@H]5C[C@@H](O)[C@]5(C)[C@@H](C7=CC(=O)OC7)CC[C@]65O)C4)O[C@@H]3C)O[C@@H]2C)C[C@H](O)[C@@H]1O — subjects with adverse event (measured: headache; healthy men; oral, dose not given, 8 days, treatment-emergent, crossover trial): 0%
O=C(NO)c1ccc(CN(c2cnccn2)c2cnccn2)cc1 — median Tmax (human patients, phase I, plasma; oral): 1.3 to 4.5 h
O=C(Nc1nc2cccc(-c3ccc(CN4CCS(=O)(=O)CC4)cc3)n2n1)C1CC1 — treatment-emergent adverse events (measured: arthropod sting allergy; rheumatoid arthritis patients; oral, 30 mg once daily, 4 weeks, any relatedness): 0%
Cn1cc(Nc2nccc(-c3ccc4c(c3)CN(C3COC3)CC[C@H]4NC(=O)c3cn(C(C)(C)C)nn3)n2)cn1 — lymphocyte count change (human, whole blood; 300 mg twice daily, day 7; relative to: pre-dose baseline): 5.05%
CC[C@H](C)[C@H](NC(=O)[C@H](CCCNC(=N)N)NC(=O)[C@H](CCC(=O)O)NC(C)=O)C(=O)N[C@H]1CSSC[C@@H](C(=O)N[C@H](C(N)=O)[C@@H](C)O)NC(=O)[C@H](CCCNC(=N)N)NC(=O)[C@H](Cc2c[nH]cn2)NC(=O)[C@H](Cc2cccc3ccccc23)NC(=O)CNC(=O)[C@H](Cc2c[nH]c3ccccc23)NC(=O)[C@H](CC(=O)O)NC(=O)[C@H](CCC(N)=O)NC(=O)[C@H](Cc2c[nH]c3ccccc23)NC(=O)[C@H](C(C)C)NC1=O — retention factor (isocratic RP-HPLC, C18; 32% acetonitrile, phosphate pH 7.4, 1% TFA; 25 °C): 1.325 ± 0.01
O=C(O)c1cc(O)c2c(c1)C(=O)c1cccc(O)c1C2=O — viability (HK-2 co-cultured with HepaRG; MTT; 33.33 µM, 24 h; relative to: untreated control): 102 ± 13.8%
C1CCCC1.C1CCCC1.[Cl][W][Cl] — oxidation potential (cyclic voltammetry; relative to: Ag/AgCl): 185 mV
CN(CC#N)C(=O)C[C@H](Nc1nc2ccccc2[nH]1)c1cccc(C(F)(F)F)c1 — apparent volume of distribution (human; intravenous infusion, 4 mg/kg, 1 mg/mL formulation): 80.4 ± 12.1 L
C=CCN1CC(=O)N2[C@@H](Cc3ccc(O)cc3F)C(=O)N(Cc3cccc(N4CC(N5CCN(CC)CC5)C4)n3)C[C@@H]2N1C(=O)NCc1ccccc1 — treatment-related adverse events (measured: AST increased; human advanced solid tumours; concentration not given, dose escalation grade ≥3): 0%
C=CC(=O)Nc1cc(Nc2nccc(-c3cn(C)c4ccccc34)n2)c(OC)cc1N(C)CCN(C)C — recovery (storage stability; human plasma; 10 d, on ice, LLOQ level): 53.8%
O=C(O)CCC(=O)O.[2H]C([2H])([2H])Oc1cc(C)c2[nH]ccc2c1CN1CC[C@@H](C2CC2)C[C@H]1c1ccc(C(=O)O)cc1 — TEAE decreased fibrinogen (healthy Chinese subjects; 400 mg, single ascending dose): 0%
O=C(OC(C(F)(F)F)C(F)(F)F)N1CCN(Cc2cccc(Oc3ccccc3)c2)CC1 — Ktrans (PET blocking study; rhesus monkey, brain Pons; 0.01 mg/kg, compound pretreatment, added: [18F]T-401 tracer): 0.0043 min⁻¹
CCCC[C@H]1CC[C@H](c2ccc(C#N)cc2)CC1 — fetal accumulation (Sprague-Dawley rat, female, fetus; 1000 ng/mL in perfusate, 50 (unit not given), middle dose, mixture of 21 LCMs): 0.084 ± 0.098 ng/g
COc1ncc(-c2nc3c(n2C(C)C)[C@H](c2ccc(Cl)cc2)N(c2cc(Cl)cn(C)c2=O)C3=O)c(OC)n1 — AUC(0-last) (LC-MS/MS, noncompartmental; human, plasma; oral, 200 mg, cycle 1 day 1, high-dose, geometric mean): 19300 ng·h/mL
Cl.[2H]C([2H])([2H])CC(=O)c1cnc(NC(=O)C2CC2)cc1Nc1cccc(-c2ncn(C([2H])([2H])[2H])n2)c1OC — terminal elimination rate constant (human, fasted, multiple dose; oral, 20 mg once daily, tablet, day 14, geometric mean): 2.11e-05 s⁻¹
CCCC[C@H](NC(=O)[C@@H](NC(=O)[C@H](CCC(=O)O)NC(=O)CNC(=O)[C@]1(C)CCCC=CCCC[C@](C)(NC(=O)[C@H](Cc2ccccc2)NC(=O)[C@H](CCCCN)NC(=O)[C@H](CCCCN)NC(=O)[C@H](C)NC(=O)[C@H](CO)NC(=O)[C@H](Cc2c[nH]cn2)NC(=O)[C@H](CC(C)C)NC(=O)[C@H](Cc2ccccc2)NC(=O)[C@H](CCCCN)NC(=O)CNC(=O)[C@@H](NC(=O)CN)[C@@H](C)CC)C(=O)N[C@@H](CCCCN)C(=O)N[C@@H](C)C(=O)N[C@@H](Cc2ccccc2)C(=O)N1)[C@@H](C)CC)C(=O)N[C@@H](CC(N)=O)C(=O)N[C@@H](CO)C(N)=O — retention time (HPLC C18 column): 15.3 min
CNCc1ccc(-c2[nH]c3cc(F)cc4c3c2CCNC4=O)cc1 — abdominal distension incidence (patients; oral, 240 mg twice daily, all grades): 0%
Cn1cc2cc1C(=O)NC[C@H](N)CC(=O)Nc1cc(n(C)c1)C(=O)Nc1cc(n(C)c1)C(=O)Nc1cc(n(C)c1)C(=O)Nc1cc(n(C)c1)C(=O)NC[C@H](N)CC(=O)Nc1cn(C)c(n1)C(=O)Nc1cn(C)c(n1)C(=O)Nc1cc(n(C)c1)C(=O)N2 — critical aggregation concentration (dynamic light scattering; 0.1% DMSO in PBS; 25 °C): 4 µM
O=C1CC[C@H](N2Cc3cc(N4CCN(CC5CCN(c6ccc([C@@H]7c8ccc(O)cc8CC[C@@H]7c7ccccc7)cc6)CC5)CC4)ccc3C2=O)C(=O)N1 — faecal excretion (radiolabelled compound; female SD rats; oral, 20 mg/kg, 0-168 h; relative to: dose): 50.5%
CNC(=O)c1ccc(-c2cnc3ncc(Cc4ccc5ncccc5c4)n3n2)cc1F — treatment-related diarrhoea incidence (healthy human subjects; oral, dose not given, all grades, added: itraconazole; relative to: subjects): 11.1%
CN(CCCN1CCN(C(=O)CN2CCN(CC(=O)[O-])CCN(CC(=O)[O-])CCN(CC(=O)[O-])CC2)CC1)c1ccc2nccc(C(=O)NCC(=O)N3CC(F)(F)C[C@H]3C#N)c2c1.[68Ga+3] — uptake (mice, HT-1080.hFAP and HT-1080 wild-type xenografts, heart; iv, 500 pmol, 4 h post injection): 0.1 %IA/g
CCn1c(=O)c(-c2cc(NC(=O)Nc3ccccc3)c(F)cc2Br)cc2cnc(NC)cc21 — participants with grade ≥ 3 TEAE (measured: lipase increased; human, severe hepatic impairment; oral, 50 mg single dose): 25%
C[C@@H]1CN(CC(=O)N2CC(C)(C)c3ncc(Cc4ccc(F)cc4)cc32)[C@@H](CN2CCOC[C@H]2C)CN1 — half-life (cynomolgus monkey, male; oral, 5 mg/kg): 3.6 ± 0.21 h
O=C(O)[C@@H](O)Cc1ccccc1 — share of total radioactive residue (laying hens, female, fat; oral, 10.7 mg/kg dry feed, 7 days): 14 % TRR
CC(C)NCCCC[C@@H]1NC(=O)[C@H](Cc2ccc(O)cc2)NC(=O)[C@H](Cc2ccccc2)NC(=O)CC[C@H](C(=O)N[C@@H](CCCCNC(C)C)C(=O)N[C@@H](CCCCNC(=O)[C@H](CCC(=O)O)NC(=O)[C@H](CCC(=O)O)NC(=O)[C@H](CCC(=O)O)NC(=O)CN2CCN(CC(=O)O)CCN(CC(=O)O)CCN(CC(=O)O)CC2)C(N)=O)NC(=O)CNC(=O)[C@H](Cc2ccc3ccccc3c2)NC(=O)[C@@H](CCCNC(=N)N)NC1=O [gallium-68 labelled] — tissue uptake (mouse with Daudi xenograft, intestine; intravenous, 2 h): 0.12 %ID/g
CCC[C@H]1CC[C@H](c2ccc(C#N)cc2)CC1 — fetal accumulation (Sprague-Dawley rat, female, fetus; 1000 ng/mL in perfusate, 50 (unit not given), middle dose, mixture of 21 LCMs): 1.55 ± 0.88 ng/g
O=C(Nc1ccc(OC(F)(F)Cl)cc1)c1cnc(N2CC[C@@H](O)C2)c(-c2ccn[nH]2)c1 — grade ≥3 event rate (per laboratory record, measured: platelet decrease; human patients; oral, dose not given, dose-finding study): 4.4%
COc1cc2c(c(O)c1OC)C(=O)c1c(cc(C)c(O)c1OC)C2=O — cell viability (HK-2 co-cultured with HepaRG; MTT; 133.33 µM, 24 h; relative to: untreated control): 33.2 ± 6.86%
COc1ccc2c(=O)n(C)c(-c3ccccc3)nc2c1 — tissue concentration (Sprague-Dawley rat, skeletal muscle; oral, 30 mg/kg, 0.25 h): not detected
CCN1CCN(Cc2ccc(NC(=O)c3ccc(C)c(NC(=O)c4cncc(-c5cccs5)c4)c3)cc2C(F)(F)F)CC1 — mean residence time (C57BL/6 mice, epithelial lining fluid; intraperitoneal, 15 mg/kg): 2.53 h
CCc1cc(C(=O)NC)c2nccc(N3CCc4c(cc(Cn5ccnc5)cc4-c4cn(C)nc4C(F)(F)F)C3=O)c2c1 — serum albumin (Sprague Dawley rats; oral, 100 mg/kg twice daily, 7 days): 33.5 ± 1.89 g/L
C=CC(=O)NC1CCN(c2ncc3ncnc(Nc4ccc(Oc5ccc6c(c5)ncn6C)c(C)c4)c3n2)CC1 — adverse events incidence (measured: skin disorders (SOC); human male; oral, dose not given, CTCAE on-treatment AEs): 0%

Repeated from above:
CCOc1c([C@H](C)n2nc(C)c3c(N)ncnc32)cc(Cl)c(F)c1[C@@H]1CNC(=O)C1 — AUC(0-last) geometric mean (patients, monotherapy; oral, 10 mg once daily, cycle 1 day 1): 2.99 µM·h
C[C@H]1O[C@@H](O[C@H]2[C@@H](O)C[C@H](O[C@H]3[C@@H](O)C[C@H](O[C@H]4CC[C@@]5(C)[C@H](CC[C@@H]6[C@@H]5C[C@@H](O)[C@]5(C)[C@@H](C7=CC(=O)OC7)CC[C@]65O)C4)O[C@@H]3C)O[C@@H]2C)C[C@H](O)[C@@H]1O — subjects with adverse event (measured: headache; healthy men; oral, dose not given, 8 days, treatment-emergent, crossover trial): 0%
